{"data": "Published values pooled from the literature", "note": "A part holds a random share of what one study measured. Substitutions count along the parent as printed."}
{"data": "Sample 1", "target": "RNA binding protein fox-1 homolog 2, RRM domain, GST-SBP tag (RBFOX2, Homo sapiens, UniProt O43251-10, residues 100-194)", "method": "RNA Bind-n-Seq", "molecule type": "RNA", "matrix": "in vitro", "tested at": "365 nM", "notes": "natural RNA segment, single round, ends assumed", "relative to": "no-protein control", "reading": "higher = stronger binding", "Residues (chain)": "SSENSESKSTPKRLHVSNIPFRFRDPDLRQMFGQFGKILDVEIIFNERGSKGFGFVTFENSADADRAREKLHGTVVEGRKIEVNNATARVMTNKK"}
{"Oligonucleotide": "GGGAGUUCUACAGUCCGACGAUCUGGCAGCAUGGGGGCCCUGCUCUUCUGGCCCGUCUCCCGGACAGGUUGAGGAAGCUGCUCCAGAAGCGCCUCGGAAGGGGAGCUCUCAUCAUGGCGCGUGCUGCUGCGGCUGGAAUUCUCGGGUGCCAA", "RBNS enrichment (R)": 2.29}
{"Oligonucleotide": "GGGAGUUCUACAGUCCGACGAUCCACGGAGGGCCGCCCGCCACGCCCCGCGCUCAACUGCUCCCGUGGAAGAUUAAAGGGCUGAAUCAUGGUGCUGACCUGGCUCUUUGUGCUGCAUGCCUAGGGGCAGGGUUUGGAAUUCUCGGGUGCCAA", "RBNS enrichment (R)": 3.56}
{"Oligonucleotide": "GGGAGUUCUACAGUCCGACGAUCUGUAAAUACUUUUUUCCAUUUCACACCGUUGUAUUAUAAGUGUAUAUGGCGACUCCUUUUCCAGAAACUUUUCUUACCUGUUGGUUGUCUUGUUUCCUGGGUUGUUUUUAUGGAAUUCUCGGGUGCCAA", "RBNS enrichment (R)": 0.461}
{"Oligonucleotide": "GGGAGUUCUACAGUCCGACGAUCCAUGAGGUGAGGAGGCUGGCCCAGAAGGAAGGGGACGUUAGGUGGUGAAGCAGGCUCCCCUGGGCCUCUGAGGGCCAGCAGUCCCAACCAUUUGCCUCUUCGUUUUGACCUGGAAUUCUCGGGUGCCAA", "RBNS enrichment (R)": 0.61}
{"Oligonucleotide": "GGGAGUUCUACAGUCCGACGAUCAACAAACAAGAAAAAUAACACUAUUAAGGAAGUCACAAUUGGCCAUGGUUUUUGAUCCCAGCUCGCCCACAGCCCUGGCCCCACCUCACCCCAUAGUGGGGGACUGGAGUUGGAAUUCUCGGGUGCCAA", "RBNS enrichment (R)": 0.461}
{"Oligonucleotide": "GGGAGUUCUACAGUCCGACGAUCGGUGGGUAGCCUCUACCAGCCAGGGCAGUCCCUGAGGGGCCAGCAGGGGGGCUGACUGCCUAGUGGCUCAACCUCCUGAACCCACCCACUCCCAGCGAUGCUACCCAGAAUGGAAUUCUCGGGUGCCAA", "RBNS enrichment (R)": 0.312}
{"Oligonucleotide": "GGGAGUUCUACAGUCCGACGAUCGGGAAUCUUCAUGAGAAGCUGAAAGAAAGGGAAAAAGAAAGUGGCUUUCUGCUUUCAAAAUUGAGGAAAAUAAACCAGAAAAUGCCAAAAGUACUGUUUUAGCAGUGCACUGGAAUUCUCGGGUGCCAA", "RBNS enrichment (R)": 0.639}
{"Oligonucleotide": "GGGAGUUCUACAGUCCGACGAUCUGCCCGACUCCAGCUGCCCAAGGACCUUUGUGUAAGGUGGCCUCAACUGUCUGGUUUUCUUUUUUUCUUUCUUUUUAACAGUGUUUUGUAGAUUUCAGAUGACUAUGCAGUGGAAUUCUCGGGUGCCAA", "RBNS enrichment (R)": 0.483}
{"Oligonucleotide": "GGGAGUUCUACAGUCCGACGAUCUCCUAACAGCUCAGCCCUGGCCUUUUCUCACUACUGAUAGCAUCAUGUAAAUGCUCCAUGUUCCUGUACACUGUCUCCUUUUGGAGCAUCUCUGAAUGGAGCAUGGCUGUUGGAAUUCUCGGGUGCCAA", "RBNS enrichment (R)": 0.284}
{"Oligonucleotide": "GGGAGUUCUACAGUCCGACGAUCUGAAAGAAGCAAUAGUAACAAUCUUAUAUUGGAUCAUGGGGGAAGCAAAUGUGUGUAUUUUAAGUGAGUUCCUGCGAGUCAUACACUGCGAUGAUGCUCCGCCUUUACCCUGGAAUUCUCGGGUGCCAA", "RBNS enrichment (R)": 0.53}
{"Oligonucleotide": "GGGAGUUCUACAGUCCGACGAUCCUCAAAUGCUUAAACUGCUGGCAACAUAUAAUAAAUGCAUGCUAUUCAAUGAAUUUCUGCCUAUGAGGCAUCUGGCCCCUGGUAGCCAGCUCUCCAGAAUUACUUGUAGGUGGAAUUCUCGGGUGCCAA", "RBNS enrichment (R)": 13.9}
{"Oligonucleotide": "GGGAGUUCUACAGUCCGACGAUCACUCCCCUUAUGGUCUACCAGUAAUUCAUACUUGAGGACCAUGACUGUGGGGAAUGAGGCAUCUUUUAGCAAGAGCUCUCACCAAUUGUAGAUUGGUGUGAAUUGCUAAGUGGAAUUCUCGGGUGCCAA", "RBNS enrichment (R)": 0.226}
{"data": "Sample 2", "target": "CCNA1, cyclin fold, Cln2 fusion (human)", "method": "yeast growth competition, sequencing", "matrix": "yeast", "notes": "weak parent motif", "relative to": "not given", "reading": "higher = stronger binding", "starting sequence": "FOXM1 docking peptide (human); PHLARPIKVESPP"}
{"Substitution": "PHLARPIKVESPA [P13A]", "normalised enrichment score": -0.00681}
{"Substitution": "PHLARPIKAESPP [V9A]", "normalised enrichment score": 0.126}
{"Substitution": "AHLARPIKVESPP [P1A]", "normalised enrichment score": -0.301}
{"Substitution": "PHLARPIKVEAPP [S11A]", "normalised enrichment score": -0.128}
{"Substitution": "PHLAAPIKVESPP [R5A]", "normalised enrichment score": -0.157}
{"Substitution": "PHLARPAKVESPP [I7A]", "normalised enrichment score": -0.283}
{"data": "Sample 3", "target": "Ras GTPase-activating protein-binding protein 1, full length (G3BP1, Homo sapiens, UniProt Q13283)", "method": "RNA Bind-n-Seq", "molecule type": "RNA", "matrix": "in vitro", "tested at": "200 nM", "notes": "whole 134-nt RNA, ends assumed", "together with": "150 mM LiCl", "relative to": "input library", "reading": "higher = stronger binding", "each molecule": "7-deaza-guanosine replaces G", "chain of UniProt Q13283 (whole entry, looked up)": "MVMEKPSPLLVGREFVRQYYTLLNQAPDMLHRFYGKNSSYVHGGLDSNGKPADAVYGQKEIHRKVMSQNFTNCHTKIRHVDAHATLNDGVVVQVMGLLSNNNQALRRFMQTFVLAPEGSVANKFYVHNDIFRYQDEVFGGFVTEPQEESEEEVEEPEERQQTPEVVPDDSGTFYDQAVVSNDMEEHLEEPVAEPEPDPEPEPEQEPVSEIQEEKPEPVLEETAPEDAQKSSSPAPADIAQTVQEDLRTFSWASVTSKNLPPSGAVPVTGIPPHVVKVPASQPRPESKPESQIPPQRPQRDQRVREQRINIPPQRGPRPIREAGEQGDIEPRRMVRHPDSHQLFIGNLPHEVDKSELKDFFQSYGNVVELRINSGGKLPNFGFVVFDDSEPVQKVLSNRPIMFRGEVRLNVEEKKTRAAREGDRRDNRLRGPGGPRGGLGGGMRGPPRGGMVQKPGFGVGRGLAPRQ"}
{"Oligonucleotide": "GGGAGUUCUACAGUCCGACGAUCUGGGAGGUGGAUUUUGUUUAUUUUUUUAGCUCAUUUCCAGGGGUGGGAAUUUUUUUUUAAUAUGUUUCAUGAAUAAAGUUGUUUUUGAAAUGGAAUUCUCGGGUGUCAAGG", "log2 enrichment": -0.306}
{"Oligonucleotide": "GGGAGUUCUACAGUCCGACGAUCGUCCUGUGCUACACAUCGUAUGUACCGAAUCGGGUUUUUGGGAAAAAGGGAAAAAGGGAAAGUAUUAUGUUACGCCGUUCGGAUCUGCACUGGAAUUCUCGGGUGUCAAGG", "log2 enrichment": -0.912}
{"Oligonucleotide": "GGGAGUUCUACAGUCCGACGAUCUGGGAGGUGGAUUUUGUUUAUUUUUUUAGCUCAUUUCCAGGGGGGGGAAUUUUUUUUUAAUAUGUGUCAUGAAUAAAGUUGUUUUUGAAAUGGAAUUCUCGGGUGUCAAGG", "log2 enrichment": 0.39}
{"Oligonucleotide": "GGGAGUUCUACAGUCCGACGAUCUCCUGUGCUACACAUCGUAUGUACCGAAUCGGGGAAAAAGGGGUUUUUGGGGUUUGGGGAAAGUAUUAUGUUACGCCGUUCGGAUCUGCAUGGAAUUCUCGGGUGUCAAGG", "log2 enrichment": -0.881}
{"Oligonucleotide": "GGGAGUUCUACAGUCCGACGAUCCCUCAAGUCCUGUGCUACACAUCGUAUGUACCGAAUCGGAAAGGUGGAAAGGAAAGUAUUAUGUUACGCCGUUCGGAUCUGCACUUCCAGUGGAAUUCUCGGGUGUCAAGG", "log2 enrichment": 0.166}
{"Oligonucleotide": "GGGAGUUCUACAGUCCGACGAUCACCAUGCAGGUGGGCAUCUUUGGGAAGUGGGGCAAGGGGGGGAUAGGGAGGGGGGUAACACUUUGGAAACAGGUGGUCCCAGGUCGUUUCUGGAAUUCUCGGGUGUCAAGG", "log2 enrichment": -0.111}
{"Oligonucleotide": "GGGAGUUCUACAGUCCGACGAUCUCAAGUCCUGUGCUACACAUCGUAUGUACCGAAUCGGUUUGGUUUGGGGUUUGGGAAAGUAUUAUGUUACGCCGUUCGGAUCUGCACUUCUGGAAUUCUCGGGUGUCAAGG", "log2 enrichment": -1.75}
{"Oligonucleotide": "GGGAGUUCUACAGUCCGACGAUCAAGUCCUGUGCUACACAUCGUAUGUACCGAAUCGGGUUUGGGAAAGGGAAAAAGGGAAAGUAUUAUGUUACGCCGUUCGGAUCUGCACUUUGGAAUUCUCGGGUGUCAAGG", "log2 enrichment": 0.292}
{"Oligonucleotide": "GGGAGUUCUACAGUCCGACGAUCCAAUGGGAAUGGACCAAAGAGUUUCAGGGAAACUCCAGUAUAUUCCAGAGUCAGAUCUAAGCUCCAGGCACGCCUGAAGAUGUGUUGCUAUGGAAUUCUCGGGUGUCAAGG", "log2 enrichment": -0.743}
{"Oligonucleotide": "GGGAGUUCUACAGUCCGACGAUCAAGUCCUGUGCUACACAUCGUAUGUACCGAAUCGGGUUUGGGAAAAAGGGAAAGGGAAAGUAUUAUGUUACGCCGUUCGGAUCUGCACUUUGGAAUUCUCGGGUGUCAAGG", "log2 enrichment": -0.389}
{"Oligonucleotide": "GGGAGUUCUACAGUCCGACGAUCUAACUUUAGAGGAGGAUCUGAUGGAUAUGGCAGUGGACGUGGAUUUGGGGAUGGCUAUAAUGGGUAUGGAGGAGGACCAGGAGGUGGCAAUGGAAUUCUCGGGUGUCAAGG", "log2 enrichment": 0.118}
{"data": "Sample 4", "target": "Sal-like protein 4, full length isoform B (SALL4, Homo sapiens, UniProt Q9UJQ4-2, residues 1-616)", "method": "universal PBM", "molecule type": "double-stranded DNA, one strand shown", "matrix": "in vitro", "tested at": "not given", "notes": "8-mer, flanks averaged, mean of replicates", "reading": "higher = stronger binding"}
{"Oligonucleotide": "CCCTACGG", "E-score": -0.149}
{"Oligonucleotide": "AGTTGCGG", "E-score": -0.0689}
{"Oligonucleotide": "AACCGATC", "E-score": -0.128}
{"Oligonucleotide": "CCCGTATC", "E-score": -0.162}
{"Oligonucleotide": "ACTACAGC", "E-score": -0.085}
{"Oligonucleotide": "AAGCAGTA", "E-score": 0.13}
{"Oligonucleotide": "CACGCCCA", "E-score": -0.252}
{"Oligonucleotide": "GCGAAGTA", "E-score": 0.0896}
{"Oligonucleotide": "CGGCGAAA", "E-score": -0.0959}
{"Oligonucleotide": "ATCTTACC", "E-score": 0.0802}
{"Oligonucleotide": "TGTTTGAA", "E-score": 0.188}
{"Oligonucleotide": "GCTACTAC", "E-score": 0.166}
{"Oligonucleotide": "AATGATAA", "E-score": 0.345}
{"Oligonucleotide": "ACGTGTAG", "E-score": -0.0236}
{"Oligonucleotide": "AAAGGGAG", "E-score": -0.102}
{"Oligonucleotide": "CTCATGAG", "E-score": -0.0331}
{"Oligonucleotide": "GTCAACTA", "E-score": 0.162}
{"Oligonucleotide": "AGACGGAA", "E-score": -0.0896}
{"data": "Sample 5", "target": "ABI1, truncated, D143A, DHFR fusion (Arabidopsis thaliana)", "method": "DHFR PCA, deep sequencing", "matrix": "yeast", "notes": "methotrexate growth selection, single substitutions", "together with": "(+)-ABA 4.8 µM", "relative to": "wild-type fitted maximum", "reading": "higher = stronger binding", "starting sequence": "PYL1, truncated, DHFR fusion (Arabidopsis thaliana); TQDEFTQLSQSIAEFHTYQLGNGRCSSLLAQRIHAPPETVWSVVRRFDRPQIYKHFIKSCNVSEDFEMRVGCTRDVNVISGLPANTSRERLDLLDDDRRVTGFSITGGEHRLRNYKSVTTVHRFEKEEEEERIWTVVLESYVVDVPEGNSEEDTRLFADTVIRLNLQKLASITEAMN"}
{"Substitution": "E38K", "relative binding score": "32.5%"}
{"Substitution": "N114D", "relative binding score": "24.7%"}
{"Substitution": "S150K", "relative binding score": "13.5%"}
{"Substitution": "V161F", "relative binding score": "48.7%"}
{"Substitution": "D95Q", "relative binding score": "3.72%"}
{"Substitution": "D95T", "relative binding score": "-13.5%"}
{"Substitution": "G23N", "relative binding score": "69.7%"}
{"Substitution": "E64G", "relative binding score": "67.9%"}
{"Substitution": "W41N", "relative binding score": "-11%"}
{"Substitution": "V44I", "relative binding score": "59%"}
{"Substitution": "L93M", "relative binding score": "63.9%"}
{"Substitution": "E139F", "relative binding score": "-8.07%"}
{"Substitution": "V40C", "relative binding score": "-4.76%"}
{"Substitution": "P146Q", "relative binding score": "6.23%"}
{"Substitution": "E130P", "relative binding score": "95.6%"}
{"Substitution": "W41I", "relative binding score": "-16.3%"}
{"Substitution": "R132D", "relative binding score": "104%"}
{"Substitution": "I52E", "relative binding score": "65%"}
{"note": "A few entries again (sample 5):"}
{"Substitution": "E64G", "relative binding score": "67.9%"}
{"Substitution": "W41N", "relative binding score": "-11%"}
{"Substitution": "V44I", "relative binding score": "59%"}
{"Substitution": "L93M", "relative binding score": "63.9%"}
{"Substitution": "E139F", "relative binding score": "-8.07%"}
{"Substitution": "V40C", "relative binding score": "-4.76%"}
{"Substitution": "P146Q", "relative binding score": "6.23%"}
{"Substitution": "E130P", "relative binding score": "95.6%"}
{"Substitution": "W41I", "relative binding score": "-16.3%"}
{"Substitution": "R132D", "relative binding score": "104%"}
